# Measurements collected from several papers.
# Protocols differ between the studies behind these lines. ± gives the spread as reported.
# Cell line: RAW264.7
SMILES,test,setting,quantity,result
O=c1c2cc(Cl)ccc2oc2nc(N3CCCCC3)sc12,"cell growth or viability, MTT",48 h,CC50,> 200 µM
Cc1ccc(C)c2sc(NC(=O)C3CCN(S(=O)(=O)c4ccc(F)cc4)CC3)nc12,MTT,"up to 30 µM, 24 h",cytotoxicity,not toxic
O=c1c2cc(Cl)cc(Cl)c2oc2nc(N3CCCCC3)sc12,"cell growth or viability, MTT",48 h,CC50,> 200 µM
O=C1C(O)=C(I)C(=O)c2ccccc21,"cell growth or viability, resazurin",,CC50,56.2 µM
NS(=O)(=O)c1ccc(-n2cc(CNc3ccccc3Cl)c(-c3ccc(OCc4ccccc4)cc3)n2)cc1,MTT,"20 µM, 24 h, 10% FBS, added: LPS",viability,> 90%
COc1ccc(CCNC(=O)/C=C/c2ccc(O)c(O)c2)cc1OC,cytotoxicity,24 h,IC50,> 100 µM
CC(C)=CCc1cc(-c2coc3cc(O)c(CC=C(C)C)c(O)c3c2=O)ccc1O,"cell growth or viability, MTT","25 µg/mL, 24 h",viability,159%
O=C(CCc1ccc(O)c(O)c1)NCCc1ccc(O)c(O)c1,cytotoxicity,24 h,IC50,> 100 µM
CC(C)=CCc1c(O)c(CC=C(C)C)c2occ(-c3ccc(O)c(O)c3)c(=O)c2c1O,"cell growth or viability, MTT","50 µg/mL, 24 h",viability,5.49%
CC(=O)O[C@@H]1CC[C@@]2(C)C(CC[C@]3(C)C2C(=O)C=C2C4[C@@H](C)[C@H](C)CC[C@]4(C)CC[C@]23C)[C@@]1(C)C(=O)OCc1cn(-c2cc(=O)oc3ccccc23)nn1 (some centres unmarked),"cell growth or viability, MTT","25 µM, 24 h",viability,103%
CC(=O)Oc1ccc(Cn2nc(C)c(=O)[nH]c2=O)cc1C1OC(c2cccc(Cl)c2)=NN1C(C)=O (centres unmarked),"cell growth or viability, resazurin",,CC50,21.7 µM
O=C(/C=C/c1ccc(O)c(O)c1)NCCc1ccccc1,cytotoxicity,24 h,IC50,35.2 ± 3.15 µM
CC(=O)O[C@@H]1CC[C@@]2(C)C(CC[C@]3(C)C2C(=O)C=C2C4[C@@H](C)[C@H](C)CC[C@]4(C)CC[C@]23C)[C@@]1(C)c1nnc(SCC(=O)OC2CC(C)CCC2C(C)C)o1 (some centres unmarked),"cell growth or viability, MTT","25 µM, 24 h",viability,99%
COc1ccc(-c2coc3c(CC=C(C)C)c(O)c(CC=C(C)C)c(O)c3c2=O)cc1O,"cell growth or viability, MTT","50 µg/mL, 24 h",viability,5.01%
CC(=O)Oc1ccc(Cn2cc(C)c(=O)[nH]c2=O)cc1C1OC(c2ccc(Cl)cc2)=NN1C(C)=O (centres unmarked),"cell growth or viability, resazurin",,CC50,> 100 µM
COc1ccc(/C=N\NC(=O)[C@]2(C)C3CC[C@]4(C)C(C(=O)C=C5C6[C@@H](C)[C@H](C)CC[C@]6(C)CC[C@]54C)[C@@]3(C)CC[C@H]2OC(C)=O)cc1 (some centres unmarked),"cell growth or viability, MTT","25 µM, 24 h",viability,99%
O=c1c2ccccc2oc2nc(N3CCC(N4CCCCC4)CC3)sc12,"cell growth or viability, MTT",48 h,CC50,108 µM
CC(=O)Oc1ccc(Cn2cc(C)c(=O)[nH]c2=O)cc1C1OC(c2ccccc2)=NN1C(C)=O (centres unmarked),"cell growth or viability, resazurin",,CC50,> 100 µM
CC(C)=CCc1c2c(c(O)c3c(=O)c(-c4ccc(O)cc4)coc13)CC(C(C)(C)O)O2 (centres unmarked),"cell growth or viability, MTT","12.5 µg/mL, 24 h",viability,107%
CC(=O)Oc1ccc(Cn2cc(F)c(=O)[nH]c2=O)cc1C1OC(c2ccccc2)=NN1C(C)=O (centres unmarked),"cell growth or viability, resazurin",,CC50,> 100 µM
COc1cc2c(cc1O)[C@]1(O)C(=O)c3c(O)cc4c(c3O[C@@H]1CO2)C=CC(C)(C)O4,"cell growth or viability, MTT","50 µg/mL, 24 h",viability,6.52%
CC(=O)O[C@@H]1CC[C@@]2(C)C(CC[C@]3(C)C2C(=O)C=C2C4[C@@H](C)[C@H](C)CC[C@]4(C)CC[C@]23C)[C@@]1(C)C(=O)N/N=C\c1ccccc1O (some centres unmarked),"cell growth or viability, MTT","25 µM, 24 h",viability,95%
CC(=O)Oc1ccc(Cn2ccc(=O)[nH]c2=O)cc1C1OC(c2ccccc2)=NN1C(C)=O (centres unmarked),"cell growth or viability, resazurin",,CC50,> 100 µM

# For quick reference, copied from above:
SMILES,test,setting,quantity,result
CC(=O)O[C@@H]1CC[C@@]2(C)C(CC[C@]3(C)C2C(=O)C=C2C4[C@@H](C)[C@H](C)CC[C@]4(C)CC[C@]23C)[C@@]1(C)c1nnc(SCC(=O)OC2CC(C)CCC2C(C)C)o1 (some centres unmarked),"cell growth or viability, MTT","25 µM, 24 h",viability,99%
